{"data": "Measurements pooled from the literature", "GBA2": "Beta-glucosidase (GBA2, Homo sapiens, UniProt Q9HCG7)", "note": "Protocols differ between the studies behind these lines. “And” joins repeats or separate records; there may be more than shown. Numbers after ± are the reported error.", "sequence of UniProt Q9HCG7 (whole entry, looked up)": "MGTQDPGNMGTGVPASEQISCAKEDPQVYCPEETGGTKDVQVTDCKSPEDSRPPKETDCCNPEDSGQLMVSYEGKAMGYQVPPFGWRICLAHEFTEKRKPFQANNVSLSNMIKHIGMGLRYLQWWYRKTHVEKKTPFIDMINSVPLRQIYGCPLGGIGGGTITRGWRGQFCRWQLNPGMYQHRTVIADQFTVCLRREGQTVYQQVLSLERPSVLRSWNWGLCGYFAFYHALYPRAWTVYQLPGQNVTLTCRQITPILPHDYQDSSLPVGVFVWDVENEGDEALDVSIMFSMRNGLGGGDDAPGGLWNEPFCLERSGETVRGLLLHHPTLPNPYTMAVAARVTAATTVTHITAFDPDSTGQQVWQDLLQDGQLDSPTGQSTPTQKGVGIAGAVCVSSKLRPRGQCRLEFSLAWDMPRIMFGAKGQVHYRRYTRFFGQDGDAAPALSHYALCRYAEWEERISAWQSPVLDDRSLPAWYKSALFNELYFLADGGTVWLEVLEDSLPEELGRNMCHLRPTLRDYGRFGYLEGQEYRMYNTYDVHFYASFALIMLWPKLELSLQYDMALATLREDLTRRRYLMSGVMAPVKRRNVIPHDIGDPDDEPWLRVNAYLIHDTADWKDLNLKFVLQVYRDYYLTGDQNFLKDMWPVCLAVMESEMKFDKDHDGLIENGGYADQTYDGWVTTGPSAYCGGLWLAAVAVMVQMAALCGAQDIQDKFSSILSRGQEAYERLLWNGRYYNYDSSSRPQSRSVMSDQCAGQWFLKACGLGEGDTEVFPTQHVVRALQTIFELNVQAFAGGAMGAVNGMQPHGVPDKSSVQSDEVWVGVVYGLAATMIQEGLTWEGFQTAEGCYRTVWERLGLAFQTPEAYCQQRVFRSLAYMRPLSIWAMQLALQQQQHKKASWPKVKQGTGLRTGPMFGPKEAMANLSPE"}
{"Structure (SMILES)": "COc1cnc2cccc(N3CCc4c(cc(Cn5ccnc5)cc4-c4cn(C)nc4C(F)(F)F)C3=O)c2c1", "test system": "BALB/c nude mice, MV4-11 xenograft", "conditions": "intraperitoneal, 50 mg/kg, day 17", "endpoint": "tumour volume", "result": "188 mm3 and 136 mm3 and 207 mm3 and 162 mm3 and 143 mm3"}
{"Structure (SMILES)": "Cc1ccc([N+](=O)[O-])cc1S(=O)(=O)N(C)/N=C/c1cnc2ccc(Br)cn12", "test system": "peripheral blood mononuclear cells, Sézary syndrome patients", "conditions": "200 nM", "endpoint": "annexin V+/PI+ cells", "result": "17.8%"}
{"Structure (SMILES)": "COC1CN([C@H]2CC[C@H]([C@@]3(C)Oc4c(Cl)cc(C(=O)NCc5c(SC)cc(C)[nH]c5=O)c(C)c4O3)CC2)C1", "test": "RNA-seq, refers to: NDRG2", "test system": "human, whole blood", "conditions": "dose not given, 24 h", "scale": "reference: pretreatment baseline", "endpoint": "log2 fold change", "result": 1.66}
{"Structure (SMILES)": "OC[C@@H]1[C@@H](O)[C@H](O)[C@@H](O)CN1CCCCCCOCC12CC3CC(CC(C3)C1)C2", "target or system": "GBA2", "test": "inhibitor, 4MU-β-D-glucopyranoside", "test system": "HEK293T homogenates overexpressing GBA2", "scale": "reference: GBA1 IC50 over GBA2 IC50", "endpoint": "selectivity ratio", "result": 50}
{"Structure (SMILES)": "CCC(CC)n1c(Cc2cccs2)nc2cc(C(=O)NC(CC(=O)O)CC(C)C)ccc21 (stereo not shown)", "test": "refers to: systolic, diastolic pressure", "test system": "mouse", "conditions": "dose not given, 2 wk", "endpoint": "blood pressure", "result": "decreased"}
{"Structure (SMILES)": "CC(C)C[C@H](NC(=O)CNC(=O)[C@H](CCC(N)=O)NC(=O)[C@H](CC(C)C)NC(=O)[C@H](CC(C)C)NC(=O)[C@H](CCCNC(=N)N)NC(=O)[C@H](CCC(N)=O)NC(=O)[C@H](CC(C)C)NC(=O)[C@H](CCCNC(=N)N)NC(=O)[C@H](C)NC(=O)CNC(=O)[C@H](CCC(=O)O)NC(=O)[C@H](CCCNC(=N)N)NC(=O)[C@H](CC(C)C)NC(=O)[C@H](CCCNC(=N)N)NC(=O)[C@H](CO)NC(=O)[C@H](CC(C)C)NC(=O)[C@H](CCC(=O)O)NC(=O)[C@H](CO)NC(=O)[C@@H](NC(=O)[C@H](Cc1ccccc1)NC(=O)[C@@H](NC(=O)CNC(=O)[C@H](CC(=O)O)NC(=O)C(C)(C)NC(=O)[C@@H](N)Cc1c[nH]cn1)[C@@H](C)O)[C@@H](C)O)C(=O)N[C@@H](CC(C)C)C(=O)N[C@@H](CCC(N)=O)C(=O)NCC(=O)N[C@@H](CC(C)C)C(=O)N[C@H](C(=O)NCC(=O)N[C@@H](CCCCNC(=O)COCCOCCNC(=O)COCCOCCNC(=O)CC[C@H](NC(=O)CCCCCCCCCCCCCCCCC(=O)O)C(=O)O)C(N)=O)C(C)C", "test system": "DIO C57BL/6J mice", "conditions": "sc, 300 nmol/kg twice daily, end of 8 days", "endpoint": "plasma free fatty acids", "result": "no effect"}
{"Structure (SMILES)": "COc1cccc(OCCN2CCC[C@H](CN3CCc4cc(OC)c(OC)cc4CC3=O)C2)c1", "test system": "C57BL/6J mouse, female, stress-naive", "conditions": "intraperitoneal, 5 mg/kg, 14 d post-dose", "scale": "reference: before dosing", "endpoint": "time in centre, open field", "result": "no effect"}
{"Structure (SMILES)": "COc1c(Cl)cccc1Nc1c(-c2ccncc2C#C[C@@]2(C)CCCN2C(=O)/C=C/CN(C)C)[nH]c2c1C(=O)NCC2", "test system": "male NSG mouse, PDX", "conditions": "50 mg/kg once daily, 42 days, EGFR SVD", "endpoint": "tumour growth inhibition", "result": "126%"}
{"Structure (SMILES)": "OC[C@@H]1[C@@H](O)[C@H](O)[C@@H](O)CN1CCCCCOCc1ccc(-c2ccccc2)c(F)c1", "target or system": "GBA2", "test": "inhibitor, 4MU-β-D-glucopyranoside", "test system": "HEK293T homogenates overexpressing GBA2", "scale": "reference: GBA1 IC50 over GBA2 IC50", "endpoint": "selectivity ratio", "result": 2500}
{"Structure (SMILES)": "CC(C)C[C@H](NC(=O)[C@H](Cc1ccccc1)NC(=O)[C@H](C)NC(=O)[C@@H](CS)NC(=O)CNC(=O)[C@H](N)CO)C(=O)N[C@@H](CO)C(=O)N[C@H](C(=O)N[C@@H](CCCCN)C(=O)N[C@@H](CCCCN)C(=O)N[C@@H](CCC(N)=O)C(=O)N[C@@H](Cc1ccccc1)C(=O)N[C@@H](CCC(=O)O)C(=O)N[C@@H](CCC(=O)O)C(=O)N[C@@H](CC(C)C)C(=O)N[C@H](C(=O)N[C@@H](CC(C)C)C(=O)NCC(=O)N[C@@H](CCC(=O)O)C(=O)N[C@@H](Cc1ccccc1)C(=O)N[C@@H](CC(C)C)C(=O)N[C@H](CCCCN)C(=O)N[C@H](CC(C)C)C(=O)N[C@H](CC(=O)O)C(=O)N[C@@H](CCCNC(=N)N)C(=O)N[C@H](CCCNC(=N)N)C(=O)N[C@@H](CCCNC(=N)N)C(=O)N[C@@H](CCCCN)C(=O)O)[C@@H](C)O)C(C)C", "test system": "mouse A549 xenograft, tumour", "conditions": "intratumoral and intravenous, dose not given", "endpoint": "CD44 cancer cell level", "result": "decreased"}
{"Structure (SMILES)": "CN1CCC[C@]1(C)/C=C/S(=O)(=O)NC(=O)Nc1c2c(cc3c1CCC3)CCC2", "test system": "human, whole blood ex vivo", "conditions": "50 mg twice daily, day 1, 6 h, multiple ascending dose, with: LPS and ATP", "endpoint": "IL-1β inhibition", "result": "99.3%"}
{"Structure (SMILES)": "CN1CCCNC(=O)c2cccc(c2)C(=O)NCCCN(C)CCCNc2cccc3c2C(=O)c2cccc(c2C3=O)NCCC1", "test system": "SAS xenograft, KSN/Slc nude mice", "conditions": "dose not given, 48 h (day 2), group mean", "endpoint": "tumour volume", "result": "102 mm3"}
{"Structure (SMILES)": "CC(C)[C@H](NC(=O)[C@H](CC(=O)O)NC(=O)[C@@H](NC(=O)[C@H](Cc1c[nH]c2ccccc12)NC(=O)[C@H](CCC(=O)O)NC(=O)[C@H](C)NC(=O)[C@H](CC(=O)O)NC(=O)CNC(=O)[C@H](Cc1ccc(O)cc1)NC(=O)[C@H](Cc1ccc(OP(=O)(O)O)cc1)NC(=O)[C@H](Cc1ccc(O)cc1)NC(=O)CCNC(=O)c1ccc(C(=O)[O-])c(-c2c3ccc(=[N+](C)C)cc-3oc3cc(N(C)C)ccc23)c1)C(C)C)C(=O)N[C@@H](CO)C(=O)O", "test": "immunohistochemistry", "test system": "ApoE-/- mice, plaque", "conditions": "dose not given, 21 days", "endpoint": "Ly6C+ monocyte proportion", "result": "19.8 ± 6.27%"}
{"Structure (SMILES)": "N=C(N)NCCC[C@@H]1NC(=O)[C@H](CCCNC(=N)N)NC(=O)[C@@H](CCCNC(=N)N)NC(=O)[C@@H](CCCNC(=N)N)NC(=O)[C@@H](C(c2ccccc2)c2ccccc2)NC(=O)[C@H](Cc2c[nH]c3ccccc23)NC(=O)[C@@H](C(c2ccccc2)c2ccccc2)NC1=O", "test system": "bacterial membrane liposomes", "conditions": "5 µg/mL, 50 min", "endpoint": "calcein leakage", "result": "38%"}
{"Structure (SMILES)": "CCCCCc1ccc(S(=O)(=O)N2CC2C(=O)OC)cc1 (stereo not shown)", "test system": "mouse, Lewis lung carcinoma", "conditions": "intraperitoneal, 15 mg/kg, 16 doses, day 15", "endpoint": "tumour volume", "result": "588 mm3"}
{"Structure (SMILES)": "C=C(NC(=O)c1csc(-c2nc3c(cc2O)-c2nc(cs2)C(=O)NC(C(C)O)C(=O)NC(=C(C)OC)c2nc(cs2)C(=O)NC2c4nc(cs4)C(=O)NC(COC(=O)c4c5c6c(cccc6n4O)COC(=O)C(OC4CC(C)(O)C(N(C)C)C(C)O4)C2OC5)c2nc-3cs2)n1)C(N)=O (stereo not shown)", "test system": "female cynomolgus monkey, plasma", "conditions": "intravenous, 1 mg/kg, single dose, infusion", "endpoint": "AUC(0-inf)", "result": "7940 ng·h/mL"}
{"Structure (SMILES)": "C[C@H](NC(=O)COC(=O)[C@H](C)NC(=O)CO)C(=O)O", "test system": "water", "conditions": "pH 2, 65 °C", "endpoint": "backbone scission rate constant", "result": "0.0128 h⁻¹"}
{"Structure (SMILES)": "COc1ccc2cc3[n+](cc2c1OCCCOC(=O)c1cscn1)CCc1cc2c(cc1-3)OCO2", "test system": "C57BL/6 mice, high-fat diet", "conditions": "oral gavage, 20 mg/kg daily, 14 weeks", "scale": "reference: HFD control", "endpoint": "plasma triglyceride reduction", "result": "35.6%"}
{"Structure (SMILES)": "O=S(=O)(NCc1ccncc1)c1ccc(C2CCCCC2)cc1", "test": "Morris water maze", "test system": "CK-p25 mouse", "conditions": "intraperitoneal, 0.3 mg/kg daily, 6 weeks, final day vs first", "scale": "reference: first trial", "endpoint": "improvement in escape latency", "result": "67.4 ± 30.1%"}
{"Structure (SMILES)": "COc1cc(O)ccc1CCC(c1ccc(O)cc1)c1cc2c(c(C)c1O)OC(c1ccc(O)cc1)CC2 (mixture of isomers)", "test system": "human blood", "conditions": "0.3 µM, with: A23187", "endpoint": "20-OH-LTB4 level", "result": "457 ± 196 pg/mL"}
{"Structure (SMILES)": "CC(=O)[O-].O.O.[O-]c1ccc(Br)cc1C=NCCN1CCOCC1.[Zn+2]", "test": "hydroxyl radical scavenging", "conditions": "40 µM", "endpoint": "inhibition", "result": "8.05%"}
{"Structure (SMILES)": "COc1ccc(C(=O)CCc2cc(C(CCc3ccc(O)cc3OC)c3ccc(O)cc3)c(O)cc2OC)cc1 (racemic)", "test system": "human blood", "conditions": "30 µM, with: A23187", "endpoint": "EPA level", "result": "74500 ± 13000 pg/mL"}
{"Structure (SMILES)": "O=C(O)c1cccc(CN2Cc3cccc(n3)CN(Cc3cccc(C(=O)O)n3)Cc3cccc(n3)C2)n1", "test system": "HEPES buffer with NaCl", "conditions": "33 °C, 1.4 T", "endpoint": "r1 relaxivity", "result": "3.6 mM⁻¹ s⁻¹"}
{"Structure (SMILES)": "COc1cc2c(NC3CCN(C(C)C)CC3)cc(N3CCOCC3)nc2cc1OCCCN1CCCC1", "test": "TMT proteomics, refers to: PGAM1", "test system": "5xFAD mice, hippocampus", "conditions": "dose not given", "scale": "reference: untreated 5xFAD mice", "endpoint": "log2 fold change", "result": 0.0478}
{"Structure (SMILES)": "CC(CCC(=O)NCc1ccc(C(=O)NO)cc1)C1CCC2C3C(O)CC4CC(O)CCC4(C)C3CCC12C (stereo not shown)", "test": "refers to: GCA", "test system": "PCK rat (Pkhd1 mutant), liver", "conditions": "oral gavage, dose not given, 5 months", "scale": "reference: total bile acids", "endpoint": "relative abundance", "result": "16.9%"}
